Assay results collected from several papers.
Each numbered part is a random draw from the data of one study; scales do not carry over between parts.

Sample 1
Target: Sal-like protein 4, full length isoform B (SALL4, Homo sapiens, UniProt Q9UJQ4-2, residues 1-616)
Method: universal PBM
Molecule type: double-stranded DNA, one strand shown
Matrix: in vitro
Tested at: not given
Setting: 8-mer, flanks averaged, mean of replicates
Direction: higher = stronger binding
Target sequence (chain): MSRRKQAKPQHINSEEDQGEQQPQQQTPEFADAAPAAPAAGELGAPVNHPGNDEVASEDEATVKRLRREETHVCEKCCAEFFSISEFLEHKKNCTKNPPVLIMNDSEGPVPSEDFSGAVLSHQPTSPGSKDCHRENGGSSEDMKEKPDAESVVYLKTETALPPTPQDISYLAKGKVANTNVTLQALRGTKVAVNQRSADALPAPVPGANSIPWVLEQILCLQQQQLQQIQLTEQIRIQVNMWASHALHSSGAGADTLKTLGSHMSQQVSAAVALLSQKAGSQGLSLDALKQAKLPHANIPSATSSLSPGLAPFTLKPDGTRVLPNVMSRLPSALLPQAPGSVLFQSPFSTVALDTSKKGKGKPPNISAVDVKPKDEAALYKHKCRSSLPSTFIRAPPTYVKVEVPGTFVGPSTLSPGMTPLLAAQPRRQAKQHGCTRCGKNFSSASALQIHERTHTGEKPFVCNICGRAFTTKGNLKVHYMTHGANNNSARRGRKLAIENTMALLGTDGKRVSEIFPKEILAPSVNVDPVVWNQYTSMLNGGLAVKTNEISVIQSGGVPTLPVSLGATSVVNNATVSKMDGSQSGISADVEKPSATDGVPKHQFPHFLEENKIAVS
Sequence | E-score
CACACTCG | -0.0679
CGAGATAG | -0.266
CAGCACGA | -0.162
CGAAAGCC | -0.258
GGGTTACA | -0.0266
GTACCGAA | -0.0958
GATTATCC | 0.0326
AGACAAGA | 0.107

Sample 2
Target: Sox, HMG box (Pigoraptor chileana)
Method: Spec-seq
Molecule type: double-stranded DNA, one strand shown
Matrix: in vitro
Tested at: not given
Setting: whole probe, mean of replicates
Baseline: not given
Direction: lower = stronger binding
All sequences stand within: GAGTCGTCTCGTCAGCAC … CCGTAGAGCACTCAGGTC
Construct (chain): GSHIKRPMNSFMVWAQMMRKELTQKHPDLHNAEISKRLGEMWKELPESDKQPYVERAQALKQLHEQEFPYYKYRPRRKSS
Sequence | relative binding energy
CTACGTT | 0.664 ln ratio
TAACGTT | 0.892 ln ratio
CATTACT | 0.282 ln ratio
CATGACG | 0.359 ln ratio
ATAGGTT | 0.125 ln ratio
GAGTGTT | 0.367 ln ratio

Sample 3
Target: RNA binding protein fox-1 homolog 2, RRM domain, GST-SBP tag (RBFOX2, Homo sapiens, UniProt O43251-10, residues 100-194)
Method: RNA Bind-n-Seq
Molecule type: RNA
Matrix: in vitro
Tested at: 365 nM
Setting: natural RNA segment, single round, ends assumed
Baseline: no-protein control
Direction: higher = stronger binding
All sequences stand within: GGGAGUUCUACAGUCCGACGAUC … UGGAAUUCUCGGGUGCCAA
Target sequence (chain): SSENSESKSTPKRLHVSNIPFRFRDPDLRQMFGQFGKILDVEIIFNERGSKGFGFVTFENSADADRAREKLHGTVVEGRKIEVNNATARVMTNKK
Sequence | RBNS enrichment (R)
AAUUAAUUCAGUGAAGGAUGAUUUUGCUCCUAGUUUUGGAGUUUGAAUUUCUGCCAGGAUUGAAUUAUUUUGAAAUCUCCUGUCUUUUUAAACUUUUUCAAAAUAGGUCU | 0.662
UAUAUGCUGGAUGUACGACAUUUUGUGACUGAAGAGACUUGGUUCCUUCUUCUUUUAUGUGUCUCAGAAUAUUUUUGAGGCGAAAGCGUCUGUCUCUUGGCUAUUUUAAC | 0.571
GCAGGCAAGAACUCAGACAUGCCCAGCCUAGCCCAGGGCGGCCUGCAUCUGGCCCCAGAAGCCUCCUCACCUGGACUGGCACAACUUCGGUUGGGGAAACAGAAGCUGAG | 0.898
GGGCCAAGCUAUAGAGGCAUGAUCAAUGUCUCCACCUCAUCAGACAUGGACCAUAACUCUGCUAUACCAGGCAGCCAGGUAUCUAGCAAUGUAGGGGACGUCAUGUCGUU | 0.253
AAAGCGCUCAUUCAGCUUGGCAGGAUGCUCAGCAAACCCUGCUUUCUGCAUAACCACCACCAAUCCCUUUAACAAAUCAAUCUUACAACCCCCCACCCCGUUACCCUGAC | 0.51
GCAUAUGCUUAUAUGUGAAUGUGUCCACAAAUCCCACCCCCUCUCCGUUCUGUCCCCCAUUCAAGGAAUGACAUUCUCAGUCACCCAGAGCCAUCUGGCCUACCCUCUCA | 0.473

Mixed results
Molecule | target | test | system | conditions | scale | endpoint | result
PhoQ, residues 284 288 289 292 302 303 SSTLLI | PhoP, residues 12 14 15 18 19 TQAML (Escherichia coli, UniProt P23836) | Sort-seq, measured: YFP reporter | E. coli | PhoQ-PhoP variant library, with: 10 µM Mg2+ | baseline: high Mg2+ state, higher = stronger signaling | fold induction | 22

Excerpt of the above (sample 2):
Sequence | relative binding energy
CTACGTT | 0.664 ln ratio
TAACGTT | 0.892 ln ratio
